Measurements of several laboratories.
Each line is one published result; not all experiments were run side by side. ± marks the error that the study gave.
Organism: HIV-1

`CC[C@H](C)[C@H](NC(=O)[C@H](CC(C)C)NC(=O)[C@H](CCC(=O)O)NC(=O)[C@H](CCC(=O)O)NC(=O)[C@@H](NC(=O)[C@H](CCCCN)NC(=O)[C@H](CCCCN)NC(=O)[C@@H](NC(=O)[C@H](Cc1ccc(O)cc1)NC(=O)[C@H](CCC(=O)O)NC(=O)[C@H](CCC(=O)O)NC(=O)[C@@H](NC(=O)[C@H](CCCCN)NC(=O)[C@H](CCCCN)NC(=O)[C@H](CC(=O)O)NC(=O)[C@H](Cc1c[nH]c2ccccc12)NC(=O)[C@H](CCC(=O)O)NC(=O)[C@H](CCC(=O)O)NC(=O)[C@H](Cc1c[nH]c2ccccc12)NC(=O)[C@@H](NC(=O)[C@@H](N)CCSC)[C@@H](C)O)[C@@H](C)CC)[C@@H](C)O)[C@@H](C)CC)C(=O)N[C@@H](CCCCN)C(=O)N[C@@H](CCCCN)C(=O)N[C@@H](CO)C(=O)O` gave an IC50 of 11.3 ± 2.2 nM (virus neutralization; SF162).
`CC(C)OC(=O)OCOP(=O)(CO[C@H](C)Cn1cnc2c(N)ncnc21)OCOC(=O)OC(C)C` gave an IC50 of 580 ± 390 nM (viral replication, MTT; MT4).
The EC90 of `O=C(CN1c2c(-c3ccccc3)n[nH]c2-c2ccccc2S1(=O)=O)NN=Cc1cccs1` is reported as > 100000 nM (viral replication; PBMC).
For `Cc1ccc(N2C(=O)CCC2(CN)c2ccccc2)cc1` (stereo not shown), the EC90 was > 100000 nM (viral replication; human PBMC, LAI).
`CC(=NNC(=O)CN1c2c(-c3ccccc3)n[nH]c2-c2ccccc2S1(=O)=O)c1ccsc1` has an EC90 of 89300 nM (viral replication; PBMC).
With `Cc1cn([C@H]2C[C@H](N=[N+]=[N-])[C@@H](CO)O2)c(=O)[nH]c1=O` the IC50 was 84 ± 1.8 nM (virus neutralization; BG505).
The EC90 of `Cc1ccc(N2C(=O)CCC2(C#N)c2ccc(OCc3ccc(Cl)cc3Cl)cc2)cc1` (stereo not shown) is reported as 24400 nM (viral replication; human PBMC, LAI).
`C#C[C@]1(CO)O[C@@H](n2cnc3c(N)nc(F)nc32)C[C@@H]1O` gave an IC50 of 0.4 nM (MT-4).
With `CC(=NNC(=O)CN1c2c(-c3ccccc3)n[nH]c2-c2ccccc2S1(=O)=O)c1ccc2ccccc2c1` the EC90 was > 100000 nM (viral replication; PBMC).
For `Cc1nc(C(NC(=O)c2ccc(-c3ccc(Cl)cc3)[nH]2)C2CCCCN2)sc1CO` (mixture of isomers), the sensitive viruses was 39% (viral entry; TZM-bl, panel of 56 Env pseudoviruses; up to 2 µM).
